Published values of several laboratories.
Parts stem from different laboratories: compare values within a part only.

Study 1 — technique: competition protein-binding microarray; molecule type: double-stranded DNA, one strand shown; sample: in vitro; concentration: 2 µM; together with: Pho4 competitor, 0.05 µM; direction: higher = stronger binding; shared flanks, not repeated: … GTCTTGATTCGCTTGACGCTGCTG
Target: Centromere-binding protein 1, full length, His-tagged (CBF1, Saccharomyces cerevisiae, UniProt P17106, residues 1-351)
UniProt P17106, sequence (whole entry, looked up): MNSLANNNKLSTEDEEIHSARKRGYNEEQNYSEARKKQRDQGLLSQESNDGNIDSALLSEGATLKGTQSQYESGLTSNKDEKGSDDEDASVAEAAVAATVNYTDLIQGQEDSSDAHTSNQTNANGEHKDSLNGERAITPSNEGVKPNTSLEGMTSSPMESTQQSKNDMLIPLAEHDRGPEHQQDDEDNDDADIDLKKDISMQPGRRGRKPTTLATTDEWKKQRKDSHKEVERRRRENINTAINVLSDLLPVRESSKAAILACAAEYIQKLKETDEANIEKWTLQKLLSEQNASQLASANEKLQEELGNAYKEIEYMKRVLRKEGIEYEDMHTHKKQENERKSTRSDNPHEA
Notes: whole 60-bp probe, lowest competitor level
Strand	fluorescence intensity
CTTTCCCGATCTTGTTGGGTGGGTGTAGCACATTTG	71.7 a.u.
TTTTAGCCCCACCTCCAGGTGATGCTTATTTGCTAG	68.5 a.u.
TCGCCTACGCTATTTCACGTTTGTGCTGATAGAAAC	95.1 a.u.
TATTTTTAGATATCTCACGTTTATACACATTGCCCA	137 a.u.
AAGTTACTGCCGCTTTACGTGTCTGTGACGGTGCTT	66.8 a.u.
AACGATATTTCAGATCAGGTGACGGTTGCTGGTTCA	1310 a.u.

Study 2 — technique: protein-binding microarray; molecule type: double-stranded DNA, one strand shown; sample: in vitro; concentration: 940 nM top; notes: 60-bp whole probe; together with: salmon DNA 0.4 mg/ml; reference: random background probes; direction: higher = stronger binding; shared flanks, not repeated: GCCTAGCAC … GTCTTGATTCGCTTGACGCTGCTG
Target: Interferon regulatory factor 5, full length, phosphomimetic (IRF5, Homo sapiens, UniProt Q13568-2, residues 1-514, S451D/S453D/S456D/S462D)
Strand	fitted relative affinity [z-score]
TTAGGGTTCCTTTTCCTTTAGTGCTAG	0.071
GACGAACTGAGACTGCAGACGTGCTAG	-0.327
ATTTGTTTCCATTTTCTGAAGTGCTAG	1.69
GACGGTATCCTTTTCCTGAAGTGCTAG	0.421
GACCGTATCCTTCTCCTGACGTGCTAG	0.588
GACGATTTCGGGTTTCGAGAGGTGCTA	2.39
TTAGGTTTTGACACTGGGTTAGTGCTA	0.286

Study 3 — technique: universal PBM; molecule type: double-stranded DNA, one strand shown; sample: in vitro; concentration: not given; direction: higher = stronger binding
Target: Sal-like protein 4, full length isoform B (SALL4, Homo sapiens, UniProt Q9UJQ4-2, residues 1-616)
Notes: 8-mer, flanks averaged, mean of replicates
Strand	E-score
GCCGTTCC	-0.245
ACGTCAAG	0.0363
GCTATCAC	-0.0339
ACGGACAA	-0.0151
AAGGGGTA	-0.0842
GGGTAGCA	-0.0834
CAGCACTA	-0.0458

Further values, each from its own experiment
Molecule	target	test	test system	conditions	scale	endpoint	result
PhoQ, residues 284 288 289 292 302 303 SMMNNA	PhoP, residues 12 14 15 18 19 SMASL (Escherichia coli, UniProt P23836)	Sort-seq, item: YFP reporter	E. coli	PhoQ-PhoP variant library, together with: 10 µM Mg2+	reference: high Mg2+ state, higher = stronger signaling	fold induction	6.08

A few entries again (study 3):
Strand	E-score
GCCGTTCC	-0.245
ACGTCAAG	0.0363
